Results from different studies.
Protocols differ between the studies behind these lines. ± gives the spread as reported.

SMILES	target or system	test	test system	conditions	how to read	endpoint	value
C=C1C[C@@H]2[C@H](CC[C@]3(C)C(=O)CC[C@@H]23)[C@@]2(C)C=CC(=O)C=C12		LC-MS/MS	postmenopausal breast cancer women, plasma	oral, 25 mg/day, 2 h, CYP1A1*2 heterozygous		median plasma concentration	8.3 ng/mL
C[C@H](Cn1cnc2c(N)ncnc21)OCP(=O)(O)O	hCMEC/D3			5 µM, 1 h, 37 °C, 3-drug cART combination		intracellular accumulation	2.63 ± 0.86 pmol/mg protein
CN/C(=N\[N+](=O)[O-])NCc1cnc(Cl)s1	Folsomia candida	reproduction, OECD 232	LUFA 2.2 soil	28 days		EC10	0.03 mg/kg dry soil
CN[C@@](C)(C[18F])C(=O)O	SK-OV-3 tumour model		host not given, bone	30 min, tumour-bearing		tracer uptake	2.8 %ID/g
COc1ccc2c(c1)[C@]13CCCC[C@@H]1[C@H](C2)N(C)CC3			Wistar rat, both sexes, plasma	oral, 5 mg/kg, 2 h after pretreatment, with: single TCE 400 mg/kg		Cmax	76.7 ± 9.95 ng/mL
Cc1ncc2n1-c1ccc(Cl)cc1C(c1ccccc1F)=NC2			human CYP3A5*3/*7, serum	with: ketoconazole 200 mg		terminal half-life	587 min
C[C@H]1CNCCc2ccc(Cl)cc21			Sprague-Dawley rat, male, plasma	subcutaneous, 0.5 mg/kg, 15 min		plasma concentration	15.6 ± 0.76 ng/mL
NC12CC3CC(CC(C3)C1)C2	MDCK	microscopy, altered cell morphology				minimum cytotoxic concentration	> 500 µM
[123I]c1cncc(OC[C@@H]2CCN2)c1		SPECT	human, brain cortex	intravenous bolus plus infusion, 7.7 mCi	relative to: plasma	tissue/plasma ratio	37.4
CSCC[C@@H]1NC(=O)[C@H](CC(=O)O)NC(=O)CNC(=O)[C@H](CCCNC(=N)N)NC(=O)[C@H](C)NC(=O)[C@H](CCC(=O)O)NC(=O)[C@H](CCCNC(=N)N)NC(=O)[C@@H]2CSSC[C@@H]3NC(=O)[C@H](CO)NC(=O)[C@H]([C@@H](C)O)NC(=O)[C@@H]4CCCN4C(=O)[C@H](C)NC(=O)[C@H](Cc4c[nH]c5ccccc45)NC(=O)[C@H](CC(=O)O)NC(=O)CNC(=O)[C@H](CCCNC(=N)N)NC(=O)CNC(=O)[C@H](CCC(N)=O)NC(=O)[C@@H]4CCCN4C(=O)[C@@H](NC(=O)CNC(=O)C(C)F)CSSC[C@H](NC(=O)CNC(=O)[C@H](C)NC(=O)[C@H](CC(C)C)NC(=O)[C@H](CSSC[C@@H](C(=O)NCC(N)=O)NC(=O)[C@H]([C@@H](C)O)NC(=O)[C@H](CCCNC(=N)N)NC(=O)[C@@H]4CCCN4C1=O)NC(=O)[C@H](CC(=O)O)NC(=O)[C@H](CO)NC(=O)[C@H](CC(=O)O)NC(=O)[C@H](CCC(N)=O)NC(=O)[C@H](CO)NC3=O)C(=O)N[C@@H](C(C)C)C(=O)N2 (stereo partly shown) [fluorine-18 labelled]			nude mice U-87 MG xenograft, tumor	intravenous, 1 h		tissue uptake	2.22 ± 0.62 %ID/g

Repeated from above:
SMILES	target or system	test	test system	conditions	how to read	endpoint	value
Cc1ncc2n1-c1ccc(Cl)cc1C(c1ccccc1F)=NC2			human CYP3A5*3/*7, serum	with: ketoconazole 200 mg		terminal half-life	587 min
CSCC[C@@H]1NC(=O)[C@H](CC(=O)O)NC(=O)CNC(=O)[C@H](CCCNC(=N)N)NC(=O)[C@H](C)NC(=O)[C@H](CCC(=O)O)NC(=O)[C@H](CCCNC(=N)N)NC(=O)[C@@H]2CSSC[C@@H]3NC(=O)[C@H](CO)NC(=O)[C@H]([C@@H](C)O)NC(=O)[C@@H]4CCCN4C(=O)[C@H](C)NC(=O)[C@H](Cc4c[nH]c5ccccc45)NC(=O)[C@H](CC(=O)O)NC(=O)CNC(=O)[C@H](CCCNC(=N)N)NC(=O)CNC(=O)[C@H](CCC(N)=O)NC(=O)[C@@H]4CCCN4C(=O)[C@@H](NC(=O)CNC(=O)C(C)F)CSSC[C@H](NC(=O)CNC(=O)[C@H](C)NC(=O)[C@H](CC(C)C)NC(=O)[C@H](CSSC[C@@H](C(=O)NCC(N)=O)NC(=O)[C@H]([C@@H](C)O)NC(=O)[C@H](CCCNC(=N)N)NC(=O)[C@@H]4CCCN4C1=O)NC(=O)[C@H](CC(=O)O)NC(=O)[C@H](CO)NC(=O)[C@H](CC(=O)O)NC(=O)[C@H](CCC(N)=O)NC(=O)[C@H](CO)NC3=O)C(=O)N[C@@H](C(C)C)C(=O)N2 (stereo partly shown) [fluorine-18 labelled]			nude mice U-87 MG xenograft, tumor	intravenous, 1 h		tissue uptake	2.22 ± 0.62 %ID/g
